Experimental data collected from several papers.
Protocols differ between the studies behind these lines. “And” joins repeats or separate records; there may be more than shown. ± marks the error that the study gave. ≈ marks a conversion by molar mass, not a printed value.

SMILES | tested on | test | system | conditions | how to read | quantity | value
CC(=O)c1c(O)c(C)c(O)c2c1OC1=CC(=O)C(=C(C)NCCCC(=O)OC3OC4OC5(C)CCC6C(C)CCC(C3C)C46OO5)C(=O)C12C (stereo not drawn) | Plasmodium berghei | – | ANKA GFP, mouse NMRI | intraperitoneal, 4 × 50 mg/kg | – | mean survival time | > 30 days
Cc1ccc(N2CC3CC(C2)N3C)cc1C(=O)NC1(c2ccc3c4c(cccc24)C(=O)N3C)CC1 | Betacoronavirus 1 | viral replication | Huh-7, OC43 | 11.72 nM | – | inhibition | 0%
COc1ccccc1-c1n[nH]c2nc(N[C@H]3CC[C@H](NS(=O)(=O)CC(C)C)CC3)ncc12 | – | bead binding, competition bead pull-down, item: LINJ.25.0940 | Leishmania donovani extract | 10 µM | reference: vehicle | relative abundance | 0.83
COc1ccc2nc3cc(Cl)ccc3c(NCCNC(C)=C3C(=O)C=C4Oc5c(C(C)=O)c(O)c(C)c(O)c5C4(C)C3=O)c2c1 (stereo not drawn) | Plasmodium berghei | – | ANKA GFP, mouse NMRI | intraperitoneal, 4 × 50 mg/kg | – | mean survival time | 7 days
Cc1cc(Oc2nc(N3CC[C@@H](c4ccncc4)C3)ncc2F)[nH]n1 | Hs 729 | cell proliferation | – | – | – | IC50 | > 100000 nM
FC(F)(F)c1cccc(CNc2nc(NC3CCN(Cc4ccccc4)CC3)c3nc[nH]c3n2)c1 | Cryptococcus neoformans | RNA-seq, item: CNAG_05321 | – | 48 µg/mL, 3 h | reference: untreated | mRNA fold change | 1.09
CCCCCCCC(=O)NCCCC[C@H](NC(=O)CCCCCCC)C(=O)N[C@@H](CCCCNC(=O)CCCCCCC)C(=O)NCC(=O)NCC(=O)NCC(=O)N[C@@H](CS)C(=O)N[C@@H](CCCNC(=N)N)C(=O)N[C@@H](CCCCN)C(=O)N1CCC[C@H]1C(=O)N[C@@H](CS)C(=O)N[C@@H](CCCNC(=N)N)C(=O)N[C@@H](CCCCN)C(=O)N1CCC[C@H]1C(=O)N[C@@H](CS)C(=O)N[C@@H](CCCNC(=N)N)C(=O)N[C@@H](CCCCN)C(=O)N1CCC[C@H]1C(N)=O | Candida albicans | broth microdilution | SP 3902, RPMI-1640 | 48 h, 30 °C | – | MIC | 16 µM (≈ 36.4 µg/mL)
CNCCO.O=C(O)C(Cl)Cl | Xanthium sibiricum | – | – | 15 mg/mL, 21 days, pre-emergence, greenhouse | – | herbicidal inhibition | 0%
O=S(=O)(c1ccc(-c2ccc3ncnc(Nc4ccc(OCc5cccc(F)c5)c(Cl)c4)c3c2)cc1)N1CCNCC1 | Plasmodium falciparum | parasite growth, SYBR Green | D6 | blood stage | – | EC50 | 94 nM
[2H]C([2H])(c1cc(F)c(F)cc1F)n1c(=O)n(Cc2ncn(C)n2)c(=O)[nH]/c1=N\c1cc2cn(C)nc2cc1Cl | Betacoronavirus 1 | viral replication, qPCR | OC43, human | – | – | IC50 | 130 nM
CCOC(=O)C1(Cc2cc(OC)cc(OC)c2)Oc2cc(F)ccc2N(Cc2cc(OC)cc(OC)c2)C1=O (stereo not drawn) | Arabidopsis thaliana | stem length, petri dish germination | Col-0, 1/2 MS medium | 50 µg/mL, 7 days, 22 °C, dark | – | inhibition | 26%
CC[C@H](C)CCCCC(=O)N[C@@H](CCN)C(=O)N[C@H](C(=O)N[C@@H](CCN)C(=O)N[C@H]1CCNC(=O)[C@H]([C@@H](C)O)NC(=O)[C@H](CCN)NC(=O)[C@H](CCN)NC(=O)[C@H](CC(C)C)NC(=O)[C@@H](CC(C)C)NC(=O)[C@H](CCN)NC1=O)[C@@H](C)O | Escherichia coli | daily serial passaging | ATCC 8739 | highest sub-MIC, 16 days | reference: initial MIC | MIC fold change | 1.37
CCCN1C(=O)C(CCC)(C(=O)OCC)Oc2cc(F)ccc21 (stereo not drawn) | Arabidopsis thaliana | root length, petri dish germination | Col-0, 1/2 MS medium | 200 µg/mL, 7 days, 22 °C, dark | – | inhibition | 100%
COc1ccc(Cn2c3cc(=O)n(Cc4cccc(Cl)n4)c(C)c3c(=O)n2-c2ccccn2)cc1 | human respiratory syncytial virus | – | recombinant reporter virus | concentration not given, scale 0 to 100, with: cytidine 300 µM | – | normalized viral replication | 0
Fc1cccc(COc2ccc(Nc3ncnc4ccc(-c5cccc(CN6CCCCC6)c5)cc34)cc2Cl)c1 | Plasmodium falciparum | parasite growth, SYBR Green | D6 | blood stage | – | EC50 | 39 nM
COc1ccc(C2=[N+]([O-])c3ccccc3N3CCCN=C23)cc1 | Fusobacterium nucleatum | – | – | – | – | MIC90 | 2 µg/mL
Clc1cc(Nc2ncnc3ccc(-c4cccc(N5CCOCC5)c4)cc23)ccc1OCc1ccccc1 | Plasmodium falciparum | parasite growth, SYBR Green fluorescence | W2, drug-resistant | – | – | EC50 | 1700 nM
CCOC(=O)C1(Cc2ccccc2F)Oc2cc(F)ccc2N(Cc2ccccc2F)C1=O (stereo not drawn) | Arabidopsis thaliana | root length, petri dish germination | Col-0, 1/2 MS medium | 50 µg/mL, 7 days, 22 °C, dark | – | inhibition | 48%
CC(C)C[C@H](NC(=O)[C@H](CC(C)C)NC(=O)[C@H](CCCCN)NC(=O)[C@H](Cc1ccccc1)NC(=O)[C@@H](NC(=O)[C@H](CCCNC(=N)N)NC(=O)[C@@H](N)CCCCN)C(C)C)C(=O)N[C@@H](CCCCN)C(=O)N[C@@H](CCCNC(=N)N)C(=O)N[C@@H](Cc1ccc(O)cc1)C(=O)N[C@@H](Cc1c[nH]c2ccccc12)C(=O)N[C@@H](CCCNC(=N)N)C(=O)N[C@@H](CCC(N)=O)C(=O)N[C@@H](CC(C)C)C(=O)N[C@@H](CCCCN)C(=O)N[C@@H](CCCCN)C(=O)N1CCC[C@H]1C(=O)N[C@H](C(=O)N[C@@H](CCCNC(=N)N)C(=O)NCCOCCOCC(=O)O)C(C)C | Pseudomonas aeruginosa and Staphylococcus aureus | crystal violet | – | 16 µM, 24 h, polymicrobial biofilm | – | biofilm inhibition | > 80%
COc1ccccc1-c1n[nH]c2nc(NC3CCN(C(=O)Cc4ccc(F)cc4F)CC3)ncc12 | – | bead binding, competition bead pull-down, item: LINJ.35.5300 | Leishmania donovani axenic amastigote extract | 10 µM | reference: vehicle | relative abundance | 1.07
CC(C)[C@H]1NC(=O)[C@H](Cc2ccccc2)NC(=O)[C@@H](C(C)C)NC(=O)[C@@H](C)NC(=O)[C@H](CO)NC(=O)[C@@H](Cc2c(-c3ccc(-c4ccc(-c5ccccc5)cc4)cc3)[nH]c3ccccc23)NC(=O)[C@@H](C)NC1=O | Candida albicans | broth dilution | – | – | – | MIC90 | > 50 µM

SMILES | tested on | test | system | conditions | how to read | quantity | value
CCOC(=O)C1(CC=C(C)C)Oc2cc(F)ccc2N(CC=C(C)C)C1=O (stereo not drawn) | Arabidopsis thaliana | root length, petri dish germination | Col-0, 1/2 MS medium | 50 µg/mL, 7 days, 22 °C, dark | – | inhibition | 31.7%
CCCCCCCC(=O)NCCCC[C@H](NC(=O)CCCCCCC)C(=O)N[C@@H](CCCCNC(=O)CCCCCCC)C(=O)NCC(=O)NCC(=O)NCC(=O)N[C@@H](CS)C(=O)N[C@@H](CCCNC(=N)N)C(=O)N[C@@H](CCCCN)C(=O)N1CCC[C@H]1C(N)=O | Candida albicans | broth microdilution | SP 3931, RPMI-1640 | 48 h, 30 °C | – | MIC | > 128 µM
CCCCCC[C@H]1C(=O)O[C@H](C)[C@H](NC(=O)c2cccc(NC=O)c2O)C(=O)O[C@@H](C)[C@@H]1OC(=O)CC(C)C | Bovine alphaherpesvirus 1 | viral replication | bovine cells | 24 h | – | IC50 | 12 nM
CCOC(=O)C1(Cc2ccc(C)cc2)Oc2cc(F)ccc2N(Cc2ccc(C)cc2)C1=O (stereo not drawn) | Arabidopsis thaliana | root length, petri dish germination | Col-0, 1/2 MS medium | 50 µg/mL, 7 days, 22 °C, dark | – | inhibition | 34.1%
CCCCCCCC(=O)NCCCC[C@H](NC(=O)CCCCCCC)C(=O)N[C@@H](CCCCNC(=O)CCCCCCC)C(=O)NCC(=O)NCC(=O)NCC(=O)N[C@@H](CS)C(=O)N[C@@H](CCCNC(=N)N)C(=O)N[C@@H](CCCCN)C(=O)N1CCC[C@H]1C(=O)N[C@@H](CS)C(=O)N[C@@H](CCCNC(=N)N)C(=O)N[C@@H](CCCCN)C(=O)N1CCC[C@H]1C(=O)N[C@@H](CS)C(=O)N[C@@H](CCCNC(=N)N)C(=O)N[C@@H](CCCCN)C(=O)N1CCC[C@H]1C(=O)N[C@@H](CS)C(=O)N[C@@H](CCCNC(=N)N)C(=O)N[C@@H](CCCCN)C(=O)N1CCC[C@H]1C(N)=O | Candida albicans | broth microdilution | SP 3876, RPMI-1640 | 48 h, 30 °C | – | MIC | 32 µM (≈ 88.4 µg/mL)
[O-][N+]1=C(Cc2ccccc2)C2=NCCCN2c2ccccc21 | Fusobacterium nucleatum | microbial growth | – | – | – | MIC50 | 1 µg/mL (≈ 3.43 µM)
CC(C)(C)OC(=O)N1CCN(S(=O)(=O)c2ccc(-c3ccc4ncnc(Nc5ccc(OCc6cccc(F)c6)c(Cl)c5)c4c3)cc2)CC1 | Plasmodium falciparum | parasite growth, SYBR Green fluorescence | C235 (TM91C235), drug-resistant | – | – | EC50 | 430 nM
CN(C)c1nc(NCc2cccc3ccccc23)c(/N=N/c2ccc(Cl)cc2)c(N(C)C)n1 | Plutella xylostella | leaf dipping | – | 200 mg/L, 96 h | – | mortality | 73.3 ± 5.8%
Fc1cccc(COc2ccc(Nc3ncnc4ccc(-c5cccc(-n6cccn6)c5)cc34)cc2Cl)c1 | Plasmodium falciparum | parasite growth, SYBR Green fluorescence | W2, drug-resistant | – | – | EC50 | > 15000 nM
CCOC(=O)C1(Cc2ccccc2)Oc2ccccc2N(Cc2ccccc2)C1=O (stereo not drawn) | Arabidopsis thaliana | stem length, petri dish germination | Col-0, 1/2 MS medium | 50 µg/mL, 7 days, 22 °C, dark | – | inhibition | 36.8%
CC(C)(C)C(=O)OCOP(=O)(OCOC(=O)C(C)(C)C)C1CCCN(O)C1=O (stereo not drawn) | MCF7 | – | – | – | – | CC50 | 83500 nM
CN(C)S(=O)(=O)c1ccc(S(=O)(=O)N2CCC(n3c(=O)[nH]c4ccccc43)CC2)cc1 | Klebsiella pneumoniae | – | ∆mfd, mouse, intranasal infection, lung | intraperitoneal, 6 mg/kg, 24 h, nanoformulation | – | lung bacterial load | 5.53 log10 CFU/g and 5.41 log10 CFU/g and 5.58 log10 CFU/g and 5.05 log10 CFU/g and 5.52 log10 CFU/g
O=S(=O)(c1ccc(-c2ccc3ncnc(Nc4ccc(O)c(Cl)c4)c3c2)cc1)N1CCOCC1 | Plasmodium falciparum | parasite growth, SYBR Green fluorescence | C235 (TM91C235), drug-resistant | – | – | EC50 | 18000 nM
CCOC(=O)C1(Cc2cc(F)cc(F)c2)Oc2cc(F)ccc2N(Cc2cc(F)cc(F)c2)C1=O (stereo not drawn) | Arabidopsis thaliana | root length, petri dish germination | Col-0, 1/2 MS medium | 50 µg/mL, 7 days, 22 °C, dark | – | inhibition | 21.9%
O=C1NC2(CC2)COc2ncc(F)cc2[C@H]2COCCN2c2ccn3ncc1c3n2 | – | – | Sprague-Dawley rat, female, kidneys | oral, 2.5 mg/kg/day, 4 weeks, end of treatment | – | organ-to-brain weight ratio | 109 ± 11.1%
COc1ccc(Nc2ncnc3ccc(-c4ccc(S(=O)(=O)N5CCOCC5)cc4)cc23)cc1Cl | Plasmodium falciparum | parasite growth, SYBR Green fluorescence | C235 (TM91C235), drug-resistant | – | – | EC50 | 1200 nM
Cc1cc(C(=O)Nc2nc3cccc(C)c3n2[C@H]2CCCCN(C(=O)/C=C/CN(C)C)C2)ccn1 | Trypanosoma brucei | cell growth, Alamar Blue | 2T1 overexpressing Tb927.11.1180 | – | reference: parental 2T1 | EC50 fold shift | 0.75 fold and 1.17 fold
CCOC(=O)C1(Cc2ccc(C(F)(F)F)cc2)Oc2cc(F)ccc2N(Cc2ccc(C(F)(F)F)cc2)C1=O (stereo not drawn) | Arabidopsis thaliana | root length, petri dish germination | Col-0, 1/2 MS medium | 200 µg/mL, 7 days, 22 °C, dark | – | inhibition | 54.5%
CCN(CC)CCCC(C)Nc1ccnc2cc(Cl)ccc12 (stereo not drawn) | Plasmodium falciparum | parasite growth | 3D7 | – | – | EC50 | 55.5 ± 27.3 nM
CC(C)(C)OCc1ccc(-c2ccc3ncnc(Nc4ccc(OCc5cccc(F)c5)c(Cl)c4)c3c2)cc1 | Plasmodium falciparum | parasite growth, SYBR Green fluorescence | W2, drug-resistant | – | – | EC50 | 2200 nM
CN(C(=O)c1ccn2ncc(-c3ccc(C(N)=O)cc3)c2c1)c1ccc(C#N)cn1 | Cryptosporidium parvum | – | UGA1 Nluc, IFN-gamma knockout C57BL/6 mice, faeces | oral, 10 mg/kg daily, 168 h post infection, treatment days 11-17 | higher means more parasites | faecal Nluc luminescence | 8120 a.u. and 24100 a.u. and 1080 a.u. and 13100 a.u.

Excerpt of the above:
SMILES | tested on | test | system | conditions | how to read | quantity | value
COc1ccc(Cn2c3cc(=O)n(Cc4cccc(Cl)n4)c(C)c3c(=O)n2-c2ccccn2)cc1 | human respiratory syncytial virus | – | recombinant reporter virus | concentration not given, scale 0 to 100, with: cytidine 300 µM | – | normalized viral replication | 0
Fc1cccc(COc2ccc(Nc3ncnc4ccc(-c5cccc(CN6CCCCC6)c5)cc34)cc2Cl)c1 | Plasmodium falciparum | parasite growth, SYBR Green | D6 | blood stage | – | EC50 | 39 nM
COc1ccc(C2=[N+]([O-])c3ccccc3N3CCCN=C23)cc1 | Fusobacterium nucleatum | – | – | – | – | MIC90 | 2 µg/mL
